Measurements collected from several papers.
Numbered parts are unrelated; each lists some results of a single study. Substitutions count along the parent as printed.
Sequence of UniProt P36897 (whole entry, looked up): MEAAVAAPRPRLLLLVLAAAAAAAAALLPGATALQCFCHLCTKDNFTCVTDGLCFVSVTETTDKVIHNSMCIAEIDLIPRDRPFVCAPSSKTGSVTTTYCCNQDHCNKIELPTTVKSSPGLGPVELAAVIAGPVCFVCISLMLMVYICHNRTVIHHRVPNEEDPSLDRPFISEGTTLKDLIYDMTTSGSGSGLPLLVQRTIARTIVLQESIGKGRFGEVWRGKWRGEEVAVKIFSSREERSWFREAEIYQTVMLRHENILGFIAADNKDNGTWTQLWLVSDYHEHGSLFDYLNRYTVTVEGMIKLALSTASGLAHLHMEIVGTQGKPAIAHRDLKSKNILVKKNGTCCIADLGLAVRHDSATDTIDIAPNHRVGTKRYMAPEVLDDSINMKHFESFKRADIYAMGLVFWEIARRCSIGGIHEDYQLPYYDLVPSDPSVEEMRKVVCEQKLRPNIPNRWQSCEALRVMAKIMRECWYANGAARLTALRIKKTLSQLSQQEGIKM
Sequence of UniProt Q5S007 (whole entry, looked up): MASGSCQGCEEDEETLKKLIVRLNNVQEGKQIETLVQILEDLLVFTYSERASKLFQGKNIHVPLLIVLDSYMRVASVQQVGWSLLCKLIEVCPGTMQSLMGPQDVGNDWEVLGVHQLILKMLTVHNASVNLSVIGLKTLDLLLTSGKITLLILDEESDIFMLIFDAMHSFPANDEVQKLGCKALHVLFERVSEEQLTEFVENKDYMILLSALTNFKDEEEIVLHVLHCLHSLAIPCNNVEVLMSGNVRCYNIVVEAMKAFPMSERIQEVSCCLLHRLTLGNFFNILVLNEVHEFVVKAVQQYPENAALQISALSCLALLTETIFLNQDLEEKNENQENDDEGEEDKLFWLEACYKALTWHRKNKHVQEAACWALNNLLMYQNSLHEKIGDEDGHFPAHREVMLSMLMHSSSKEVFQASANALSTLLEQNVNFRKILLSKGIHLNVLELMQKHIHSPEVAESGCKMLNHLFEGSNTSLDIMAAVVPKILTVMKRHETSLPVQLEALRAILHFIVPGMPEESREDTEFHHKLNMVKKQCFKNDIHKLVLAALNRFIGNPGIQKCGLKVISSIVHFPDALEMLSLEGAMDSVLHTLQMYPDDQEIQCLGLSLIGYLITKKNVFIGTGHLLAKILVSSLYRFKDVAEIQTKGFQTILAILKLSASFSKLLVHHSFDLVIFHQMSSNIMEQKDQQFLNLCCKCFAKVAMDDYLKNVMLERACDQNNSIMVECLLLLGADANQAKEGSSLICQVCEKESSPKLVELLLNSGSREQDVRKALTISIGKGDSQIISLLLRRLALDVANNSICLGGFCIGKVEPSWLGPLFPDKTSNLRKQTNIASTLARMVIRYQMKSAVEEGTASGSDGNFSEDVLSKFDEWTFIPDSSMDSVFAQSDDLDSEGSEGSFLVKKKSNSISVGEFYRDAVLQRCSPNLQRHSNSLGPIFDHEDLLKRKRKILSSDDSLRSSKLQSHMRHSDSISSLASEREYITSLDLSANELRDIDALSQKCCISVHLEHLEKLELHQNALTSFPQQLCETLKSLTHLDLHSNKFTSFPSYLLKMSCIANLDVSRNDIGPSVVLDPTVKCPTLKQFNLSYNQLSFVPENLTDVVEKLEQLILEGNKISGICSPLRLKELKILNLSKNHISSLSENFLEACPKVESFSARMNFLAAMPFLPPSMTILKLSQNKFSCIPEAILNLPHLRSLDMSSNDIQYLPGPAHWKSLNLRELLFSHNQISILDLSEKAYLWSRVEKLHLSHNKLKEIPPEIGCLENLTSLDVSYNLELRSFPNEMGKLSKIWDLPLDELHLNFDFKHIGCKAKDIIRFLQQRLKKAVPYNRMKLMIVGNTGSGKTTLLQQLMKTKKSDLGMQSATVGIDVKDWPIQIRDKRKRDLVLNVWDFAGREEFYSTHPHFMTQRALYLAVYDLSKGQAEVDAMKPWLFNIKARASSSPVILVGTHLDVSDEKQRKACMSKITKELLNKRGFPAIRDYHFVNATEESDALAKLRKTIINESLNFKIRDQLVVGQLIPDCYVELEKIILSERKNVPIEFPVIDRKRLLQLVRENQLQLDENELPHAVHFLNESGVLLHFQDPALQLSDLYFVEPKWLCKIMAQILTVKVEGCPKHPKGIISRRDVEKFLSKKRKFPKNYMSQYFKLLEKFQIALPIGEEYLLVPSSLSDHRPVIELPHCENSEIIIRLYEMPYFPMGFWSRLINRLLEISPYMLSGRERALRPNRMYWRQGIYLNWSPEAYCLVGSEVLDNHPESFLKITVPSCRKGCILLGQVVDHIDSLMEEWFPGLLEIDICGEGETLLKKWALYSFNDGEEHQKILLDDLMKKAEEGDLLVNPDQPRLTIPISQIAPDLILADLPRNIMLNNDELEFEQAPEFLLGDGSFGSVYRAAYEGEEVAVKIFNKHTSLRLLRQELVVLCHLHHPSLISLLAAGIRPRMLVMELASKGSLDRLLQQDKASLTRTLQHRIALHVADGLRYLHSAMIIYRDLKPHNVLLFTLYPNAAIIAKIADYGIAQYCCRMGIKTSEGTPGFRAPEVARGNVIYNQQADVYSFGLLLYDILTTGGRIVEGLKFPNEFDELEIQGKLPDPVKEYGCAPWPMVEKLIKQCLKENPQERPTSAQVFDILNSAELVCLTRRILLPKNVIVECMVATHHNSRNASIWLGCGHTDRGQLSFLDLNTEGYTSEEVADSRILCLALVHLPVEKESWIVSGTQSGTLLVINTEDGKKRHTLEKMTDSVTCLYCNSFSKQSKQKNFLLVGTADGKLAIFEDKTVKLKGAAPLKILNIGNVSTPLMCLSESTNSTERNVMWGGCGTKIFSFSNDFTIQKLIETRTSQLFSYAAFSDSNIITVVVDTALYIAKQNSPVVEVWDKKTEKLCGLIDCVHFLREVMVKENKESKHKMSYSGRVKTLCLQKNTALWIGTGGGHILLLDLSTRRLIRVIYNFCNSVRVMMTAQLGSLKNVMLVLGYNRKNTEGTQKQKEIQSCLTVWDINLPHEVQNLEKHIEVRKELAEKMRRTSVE
Sequence of UniProt Q9NY57 (whole entry, looked up): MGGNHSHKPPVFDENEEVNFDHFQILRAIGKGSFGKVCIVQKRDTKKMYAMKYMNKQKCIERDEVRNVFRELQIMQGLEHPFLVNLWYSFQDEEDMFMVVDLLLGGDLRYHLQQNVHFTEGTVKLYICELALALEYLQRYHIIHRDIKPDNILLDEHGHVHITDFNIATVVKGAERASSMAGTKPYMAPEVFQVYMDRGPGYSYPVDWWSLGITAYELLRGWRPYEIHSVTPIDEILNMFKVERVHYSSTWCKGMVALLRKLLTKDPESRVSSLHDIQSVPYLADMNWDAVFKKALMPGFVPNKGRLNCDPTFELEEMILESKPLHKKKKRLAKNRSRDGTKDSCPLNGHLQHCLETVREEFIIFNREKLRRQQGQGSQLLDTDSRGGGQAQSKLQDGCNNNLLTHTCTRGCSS

Series 1
Target: FOS, bZIP domain (human)
Method: DHFR protein complementation
Medium: yeast
Setting: single substitutions, most at no-binding floor
Baseline: wild-type JUN-FOS pair
Reading: higher = stronger binding
Starting sequence: JUN, bZIP domain (human); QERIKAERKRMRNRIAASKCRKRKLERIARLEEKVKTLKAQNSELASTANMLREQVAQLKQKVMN; partner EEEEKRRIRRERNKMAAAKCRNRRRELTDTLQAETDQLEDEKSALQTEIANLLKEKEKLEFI
Variant	binding fitness [natural log]
L31V	-0.672
A29K	-0.168
A40M	-0.119
E33R	-0.271
M51D	0.00223
S43F	-0.104
A49M	-0.26
L31E	-0.427

Series 2
Target: Serine/threonine-protein kinase PAK 1 (PAK1, Homo sapiens, UniProt Q13153)
Sequence of UniProt Q13153 (whole entry, looked up): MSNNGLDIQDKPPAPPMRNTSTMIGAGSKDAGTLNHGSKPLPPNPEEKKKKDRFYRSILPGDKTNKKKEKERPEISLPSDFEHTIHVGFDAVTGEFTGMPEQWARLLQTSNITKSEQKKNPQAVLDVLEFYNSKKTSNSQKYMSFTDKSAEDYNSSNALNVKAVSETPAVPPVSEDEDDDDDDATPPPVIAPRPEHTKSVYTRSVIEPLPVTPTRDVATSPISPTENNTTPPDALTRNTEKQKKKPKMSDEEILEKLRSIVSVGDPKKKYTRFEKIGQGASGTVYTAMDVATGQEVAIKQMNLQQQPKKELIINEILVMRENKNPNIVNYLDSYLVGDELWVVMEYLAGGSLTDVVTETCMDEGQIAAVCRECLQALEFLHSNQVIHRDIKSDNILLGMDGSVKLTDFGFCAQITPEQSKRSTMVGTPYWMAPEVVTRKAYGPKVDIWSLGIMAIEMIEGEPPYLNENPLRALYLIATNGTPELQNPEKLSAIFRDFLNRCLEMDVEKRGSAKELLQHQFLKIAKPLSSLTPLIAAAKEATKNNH
Observed: enzyme activity
Mode: inhibitor
Concentration: 0.5 µM
Baseline: control
Structure (SMILES)	remaining activity [%]
COc1ccc(C(=O)Nc2sc3c(c2C(N)=O)CCCC3)cc1OC	94
N#CC(C#N)=C(N)/C(C#N)=C/c1ccc(O)cc1	90.9
Nc1ccc2ncnc(NCCc3ccc(Oc4ccccc4)cc3)c2c1	94.9
Cc1cccc(-c2[nH]c(C(C)(C)C)nc2-c2ccc3c(c2)OCO3)n1	96.3
O=C(CCCc1ccc(-c2ccccc2F)cc1)Nc1ccc(O)cc1	95.4
O=S(=O)(c1cccc2cnccc12)N1CCCNCC1	94.6
COc1ccc(CNC(=O)Nc2ncc([N+](=O)[O-])s2)cc1	94.2
Cn1c2ccccc2c2c3c(c4c5ccccc5n(CCC#N)c4c21)CNC3=O	83.3
O=C(O)c1ccc2c3c1cccc3c(=O)n1c3ccccc3nc21	95.6
O=C1NC(=O)C(c2cn(CCCn3ccnc3)c3ccccc23)=C1Nc1ccccc1	92.9
Nc1[nH]nc2nc3ccccc3nc12	97.1
Cc1ccc(NC(=O)c2ccc(CN3CCN(C)CC3)cc2)cc1Nc1nc(-c2cccnc2)cs1	104
O=C1NC(=O)C(c2cn(CCCO)c3ncccc23)=C1c1cnccn1	101
Cn1sc(=O)n(Cc2ccccc2)c1=O	94.1

Series 3
Target: CEP164, C-terminal peptide (human)
Method: DHFR complementation, deep sequencing
Medium: yeast
Setting: single substitutions, model-inferred values
Baseline: wild type
Reading: higher = weaker binding
Starting sequence: PDZK1, PDZ domain 2 (human); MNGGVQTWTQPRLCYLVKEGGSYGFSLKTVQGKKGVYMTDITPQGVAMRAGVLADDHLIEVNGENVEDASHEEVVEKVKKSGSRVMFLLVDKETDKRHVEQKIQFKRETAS; partner HNRVKVYRF
Variant	binding free energy change
E19Y	0.334 kcal/mol
D91S	-0.21 kcal/mol
M1K	-0.166 kcal/mol
A47N	1.56 kcal/mol
Q6R	-0.125 kcal/mol
V30R	0.299 kcal/mol
D91F	0.231 kcal/mol
G20R	0.109 kcal/mol

Series 4
Structure (SMILES): COc1ccc2cc(OCC3(C(=O)O)CN(C(=O)c4ccc(F)cc4)C3)ccc2c1
Observed: cell-free assay
Method: competition with immobilised ligand
Concentration: 1 µM
target	remaining binding
Serine/threonine-protein kinase 32B (STK32B, Homo sapiens, UniProt Q9NY57)	100%
Receptor-type tyrosine-protein kinase FLT3 (FLT3, Homo sapiens, UniProt P36888, F691L/ITD)	100%
Tyrosine-protein kinase Fgr (FGR, Homo sapiens, UniProt P09769)	96%
Leucine-rich repeat serine/threonine-protein kinase 2 (LRRK2, Homo sapiens, UniProt Q5S007)	100%
TGF-beta receptor type-1 (TGFBR1, Homo sapiens, UniProt P36897)	100%

Some of these lines once more (series 1):
Variant	binding fitness [natural log]
A29K	-0.168
E33R	-0.271
A49M	-0.26
L31E	-0.427
